{"data": "Measured values gathered from unrelated publications", "note": "Parts stem from different laboratories: compare values within a part only."}
{"data": "Series 1", "target": "Phosphate system positive regulatory protein PHO4, full length, GST-tagged (PHO4, Saccharomyces cerevisiae, UniProt P07270, residues 1-312)", "technique": "competition protein-binding microarray", "form": "double-stranded DNA, one strand shown", "medium": "in vitro", "concentration": "2 µM", "notes": "whole 60-bp probe, lowest competitor level", "added": "Cbf1 competitor, 0.05 µM", "direction": "higher = stronger binding", "all sequences stand within": "… GTCTTGATTCGCTTGACGCTGCTG", "Target sequence (chain)": "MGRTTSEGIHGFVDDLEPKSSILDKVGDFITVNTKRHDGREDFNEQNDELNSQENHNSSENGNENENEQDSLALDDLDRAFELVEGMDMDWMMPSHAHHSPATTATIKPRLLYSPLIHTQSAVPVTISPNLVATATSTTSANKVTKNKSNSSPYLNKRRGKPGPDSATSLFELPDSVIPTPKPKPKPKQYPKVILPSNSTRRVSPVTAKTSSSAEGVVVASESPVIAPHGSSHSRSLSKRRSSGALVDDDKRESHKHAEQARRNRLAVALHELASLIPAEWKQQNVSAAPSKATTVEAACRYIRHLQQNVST"}
{"Oligonucleotide": "TTTTAGAGGAAAGAGAACGTGGTGAAAAAGTCAAAA", "fluorescence intensity [a.u.]": 11800}
{"Oligonucleotide": "ATAAAGTGTCCCTGTCACACTCATACAACAACTGTT", "fluorescence intensity [a.u.]": 4570}
{"Oligonucleotide": "AAAGCGGTAATTTGTGAAGTGGGTGCAGATATCTAT", "fluorescence intensity [a.u.]": 4020}
{"Oligonucleotide": "AAATTACTAAGTTGACTAGTGGGTGACGCCGTATGA", "fluorescence intensity [a.u.]": 4170}
{"Oligonucleotide": "GGGTACGGACCCCGTCACGTAAGACGATGCCGATGC", "fluorescence intensity [a.u.]": 3930}
{"data": "Series 2", "target": "Interferon regulatory factor 7, full length, phosphomimetic (IRF7, Homo sapiens, UniProt Q92985, residues 1-503, S101K/S471D/S472D/S475D/S476D/S477D/S483D/S484D/S487D)", "technique": "protein-binding microarray", "form": "double-stranded DNA, one strand shown", "medium": "in vitro", "concentration": "250 nM", "notes": "60-bp whole probe", "added": "salmon DNA 0.4 mg/ml", "baseline": "random background probes", "direction": "higher = stronger binding", "chain of UniProt Q92985 (whole entry, unmodified, looked up)": "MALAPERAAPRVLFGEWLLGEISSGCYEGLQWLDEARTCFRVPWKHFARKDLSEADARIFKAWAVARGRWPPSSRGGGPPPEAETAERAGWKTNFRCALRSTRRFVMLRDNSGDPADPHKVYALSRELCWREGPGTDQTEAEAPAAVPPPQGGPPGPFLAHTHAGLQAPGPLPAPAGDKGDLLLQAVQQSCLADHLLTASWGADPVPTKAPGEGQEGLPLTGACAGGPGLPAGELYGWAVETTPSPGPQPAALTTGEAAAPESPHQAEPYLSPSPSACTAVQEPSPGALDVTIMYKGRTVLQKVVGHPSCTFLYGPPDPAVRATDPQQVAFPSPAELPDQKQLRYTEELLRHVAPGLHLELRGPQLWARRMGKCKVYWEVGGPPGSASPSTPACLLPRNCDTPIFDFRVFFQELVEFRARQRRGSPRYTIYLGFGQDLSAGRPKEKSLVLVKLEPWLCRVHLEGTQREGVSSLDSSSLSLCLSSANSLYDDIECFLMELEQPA"}
{"Oligonucleotide": "GCCTAGCACTTAGGTATCATTCTCCTTTAGTGCTAGGTCTTGATTCGCTTGACGCTGCTG", "log fluorescence": "0.817 z-score"}
{"Oligonucleotide": "GCCTAGCACGACGATATCAGCTTCGAGACGTGCTAGGTCTTGATTCGCTTGACGCTGCTG", "log fluorescence": "-0.0558 z-score"}
{"Oligonucleotide": "GCCTAGCACTTAGGACCGGGACTGGGTTAGTGCTAGGTCTTGATTCGCTTGACGCTGCTG", "log fluorescence": "0.624 z-score"}
{"data": "Series 3", "target": "Histone acetyltransferase KAT6A, both winged helices, GST fusion (KAT6A, Homo sapiens, UniProt Q92794, residues 1-181)", "technique": "protein binding microarray", "form": "double-stranded DNA, one strand shown", "medium": "in vitro", "concentration": "not given", "notes": "8-mer, flanks averaged, mean of 2 arrays, mostly near background", "baseline": "not given", "direction": "higher = stronger binding", "Target sequence (chain)": "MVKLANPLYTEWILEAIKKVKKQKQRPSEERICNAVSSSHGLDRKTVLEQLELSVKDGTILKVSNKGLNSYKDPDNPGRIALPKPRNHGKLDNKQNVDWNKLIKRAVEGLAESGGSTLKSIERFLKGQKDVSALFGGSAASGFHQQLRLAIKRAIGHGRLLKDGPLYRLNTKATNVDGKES"}
{"Oligonucleotide": "AGCGTATG", "E-score": 0.0931}
{"Oligonucleotide": "GCAATCGC", "E-score": 0.149}
{"Oligonucleotide": "GGCCTGCA", "E-score": -0.0536}
{"Oligonucleotide": "GGCGGCCA", "E-score": 0.128}
{"data": "Other studies, line by line"}
{"Molecule": "PhoQ, residues 284 288 289 292 302 303 AANNSF", "target": "PhoP, residues 12 14 15 18 19 SGWQI (Escherichia coli, UniProt P23836)", "test": "Sort-seq, measured: YFP reporter", "test system": "E. coli", "conditions": "PhoQ-PhoP variant library, added: 10 µM Mg2+", "scale": "baseline: high Mg2+ state, higher = stronger signaling", "quantity": "fold induction", "result": 0.94}
{"note": "Excerpt of the above (series 3):"}
{"Oligonucleotide": "GCAATCGC", "E-score": 0.149}
{"Oligonucleotide": "GGCCTGCA", "E-score": -0.0536}
